Measured values collected from several papers.
Numbers after ± are the reported error.

For `CC(C)C[C@@H]1NC(=O)[C@@H]2CCCN2C(=O)[C@H](Cc2c[nH]c3ccccc23)NC(=O)[C@@H]2CCCN2C(=O)[C@H](Cc2ccccc2)NC(=O)[C@H](CC(=O)O)NC(=O)[C@H](C)NC(=O)[C@@H]2CSSC[C@H](NC(=O)[C@H](CCC(N)=O)NC(=O)[C@H](Cc3c[nH]cn3)NC(=O)CNC1=O)C(=O)N[C@@H](Cc1ccccc1)C(=O)N1CCC[C@H]1C(=O)N[C@@H](CC(=O)O)C(=O)NCC(=O)N[C@@H](Cc1ccccc1)C(=O)N[C@H]1CSSC[C@H](NC(=O)[C@H](CO)NC(=O)[C@H](Cc3c[nH]cn3)NC(=O)[C@H](Cc3c[nH]cn3)NC(=O)[C@H](Cc3c[nH]c4ccccc34)NC1=O)C(=O)N[C@@H](C(C)C)C(=O)N1CCC[C@H]1C(=O)N[C@@H](CO)C(=O)NCC(=O)N[C@@H]([C@@H](C)O)C(=O)N2`, “dimer dissociation temperature” read 328 K (NOESY NMR; water).
For `N#CC1(c2ccc3c(N)ncnn23)OC(COP(=O)(O)O)C(O)C1O` (stereo not shown), the AUC(0-t) was 1330 nmol·h/kg (LC-MS/MS; CD-1 mouse, lung; oral, 100 mg/kg of remdesivir).
`C[C@@H]1Cc2c([nH]c3ccccc23)[C@@H](c2c(F)cc(/C=C/C(=O)O)cc2F)N1C12CC(C1)C2` gave an AUC(0-t) of 19500 ng·h/mL (Balb/c nude mouse, MCF7 xenograft, tumour; oral, 10 mg/kg, steady state).
Under “alpha rate constant”, `N=C(N)NCCC[C@@H]1NC(=O)[C@H](Cc2c[nH]c3ccccc23)NC(=O)[C@@H](CC2CCCCC2)NC(=O)[C@@H]2CCCN2C(=O)[C@@H](NC(=O)CCc2ccccc2)CCCNC1=O` is recorded as 0.46 min⁻¹ (two-compartment model; C57BL/6J mice, plasma; intravenous, 1 mg/kg).
Under “radiometal bound to chelator”, `O=C([O-])c1cccc(CN(CCN(Cc2cn(Cc3ccccc3)nn2)Cc2cccc(C(=O)[O-])n2)Cc2cn(Cc3ccccc3)nn2)n1.[64Cu+2]` is recorded as 99.9% (human serum; 1 h, 37 °C, together with: 64Cu).
`C#Cc1cccc(Nc2ncnc3cc(OC)c(OCCCN4CCOCC4)cc23)c1` has a half-life of 33.2 min (metabolic stability; dog, liver microsomes; 1 µM, pH 7.4).
`C[C@@H](C(=O)O)N(CC(=O)N(CCS)CC(N)=O)C(=O)CN(C(=O)CN(C(=O)CN(C(=O)CN(C(=O)CN(C(=O)CN(C(=O)CN(C(=O)CN(C(=O)CN(C(=O)CN(C(=O)CN(C(=O)CN(CCS)C(=O)CN1CCCN(C(=O)CN2CCCNCC2)CC1)[C@@H](C)c1ccccc1)[C@@H](C)C(=O)O)[C@@H](C)C(=O)O)[C@@H](C)c1ccccc1)[C@@H](C)C(=O)O)[C@@H](C)C(=O)O)[C@@H](C)c1ccccc1)[C@@H](C)C(=O)O)[C@@H](C)C(=O)O)[C@@H](C)c1ccccc1)[C@@H](C)C(=O)O` has a water solubility of at least 22.9 mM (distilled water).
The plasma concentration of `C[C@H]1CO[C@@H]2Cn3cc(C(=O)NCc4ccc(F)cc4F)c(=O)c(O[C@@H]4O[C@H](C(=O)O)[C@@H](O)[C@H](O)[C@H]4O)c3C(=O)N12` is reported as 55.1 ± 76.6 ng/mL (LC-MS/MS; human, UGT1A9 wild-type, plasma; intramuscular, dose not given, 1 weeks after first injection).
With `Cc1[nH]nc2c1N=C(c1ccccc1Cl)c1cnc(N3CCOCC3)cc1N2` the urinary excretion was 0.28% (human male, urine; oral, 10 mg, 0-72 h; reference: dose).
For `CCC/C(=C\C1=C(OC)C(=O)c2ccccc2C1=O)C(=O)NOC`, the CLint was 18 mL/min/kg (mouse liver S9; 1 µM, phase II UGT conditions).
`COc1cc(NC(C)=O)c2c(c1O)-c1c(OC)c(OC)cc3c1C(C2)N(C)CC3` (stereo not shown) has a remaining compound of 99.5 ± 1.6% (rat, plasma; 5 µg/mL, time not given, -20 °C to room temperature, three freeze-thaw cycles).
With `OCc1cn(Cc2ccc(-c3noc(-c4ccc(OCC[18F])c(C(F)(F)F)c4)n3)cc2)nn1` the tracer uptake was 1.96 %ID/g (rat, pancreas; intravenous, 5 min).
The unbound fraction of `C=C(C)C(=O)Nc1ccc(-c2c(-c3ccc(Oc4nccc(C)n4)cc3)c3c(N)ncnc3n2C)cc1` is reported as 0.023 (Sprague-Dawley rat, plasma; 5 µM, 18 h).
`CCCC[C@H](NC(=O)CNC(=O)CNC(=O)CN1CCN(CC(=O)O)CCN(CC(=O)O)CC1)C(=O)N[C@H]1CC(=O)NCCCC[C@@H](C(N)=O)NC(=O)[C@H](Cc2c[nH]c3ccccc23)NC(=O)[C@H](CCCNC(=N)N)NC(=O)[C@@H](Cc2ccccc2)NC(=O)[C@H](Cc2c[nH]cn2)NC1=O` [copper-64 labelled] has an uptake ratio of 5.74 (female C57 mouse, B16/F1 melanoma; intravenous, 0.037 MBq, 24 h; reference: tumour over kidneys).
`NC[C@@H](C(=O)Nc1ccc(-c2cn[nH]c2)cc1)c1ccccc1`: “ocular irritation score” 0 (OECD 405, item: Chemosis; New Zealand White rabbit; topical, 0.1 %, 72 h, day 4; direction not given).
With `Cn1cc2cc1C(=O)NCCCC(=O)Nc1cn(C)c(n1)C(=O)Nc1cn(C)c(n1)C(=O)Nc1cc(n(C)c1)C(=O)Nc1cc(n(C)c1)C(=O)NC[C@H](N)CC(=O)Nc1cc(n(C)c1)C(=O)Nc1cc(n(C)c1)C(=O)Nc1cc(n(C)c1)C(=O)N2` the blood concentration was 4.6 µM (C57BL/6 mice, blood; intraperitoneal, 120 nmol/animal, 1.5 h, corrected for extraction efficiency).

A few entries again:
Under “radiometal bound to chelator”, `O=C([O-])c1cccc(CN(CCN(Cc2cn(Cc3ccccc3)nn2)Cc2cccc(C(=O)[O-])n2)Cc2cn(Cc3ccccc3)nn2)n1.[64Cu+2]` is recorded as 99.9% (human serum; 1 h, 37 °C, together with: 64Cu).
